Experimental data of several laboratories.
A part holds a random share of what one study measured. Positions count from the first letter of the parent shown.

Series 1 — target: UBE2D3 UBC core domain (UniProt P61077); method: yeast two-hybrid; medium: yeast; notes: mostly zero background; relative to: not given; direction: higher = stronger interaction
B1: RNF10 RING domain (UniProt Q8N5U6); chain VRICSHEVPSCPICLYPPTAAKITRCGHIFCWACILHYLSLSEKTWSKCPICYSSVHKKDLKS
B2: UBE4B RING domain (UniProt O95155); chain KNARAEIDYSDAPDEFRDPLMDTLMTDPVRLPSGTIMDRSIILRHLLNSPTDPFNRQTLTESMLEPVPELKEQIQAWMREKQNSDH
B3: TRIM68 RING domain (UniProt Q6AZZ1); chain LVEAIVEEVACPICMTFLREPMSIDCGHSFCHSCLSGLWEIPGESQNWGYTCPLCRAPVQPRNLRP
B4: RNF7 RING domain (UniProt Q9UBF6); chain AICRVQVMDACLRCQAENKQEDCVVVWGECNHSFHNCCMSLWVKQNNRCPLCQQDWVVQRIGK
B5: NHLRC1 RING domain (UniProt Q6VVB1); chain MREAEISLLECKVCFEKFGHRQQRRPRNLSCGHVVCLACVAALAHPRTLALECPFCRRACRGCDTSD
B6: TRIM47 RING domain (UniProt Q96LD4); chain MDGSGPFSCPICLEPLREPVTLPCGHNFCLACLGALWPHRGASGAGGPGGAARCPLCQEPFPDGLQLR
B7: RNF130 RING domain (UniProt Q86XS8); chain DKETDPDFDHCAVCIESYKQNDVVRILPCKHVFHKSCVDPWLSEHCTCPMCKLNILKALGIV
Target sequence (chain): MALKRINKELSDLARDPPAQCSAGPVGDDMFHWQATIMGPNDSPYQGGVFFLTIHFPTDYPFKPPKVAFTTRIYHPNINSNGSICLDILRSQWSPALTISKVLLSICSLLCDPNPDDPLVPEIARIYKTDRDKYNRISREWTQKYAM
For `B1 (RNF10 RING domain)`, “lacZ reporter activity” read 0.
Under “lacZ reporter activity”, `B2 (UBE4B RING domain)` is recorded as 0.
`FLSKVEETFQCICCQELVFRPITTVCQHNVCKDCLDRSFRAQVFSCPACRYDLGRSYAMQ (UHRF1 RING domain (UniProt Q96T88))`: “lacZ reporter activity” 0.
For `B3 (TRIM68 RING domain)`, “lacZ reporter activity” read 0.
Under “lacZ reporter activity”, `B4 (RNF7 RING domain)` is recorded as 0.
`B5 (NHLRC1 RING domain)`: “lacZ reporter activity” 0.
For `B6 (TRIM47 RING domain)`, “lacZ reporter activity” read 0.
For `B7 (RNF130 RING domain)`, “lacZ reporter activity” read 14700.

Series 2 — target: MAFF, bZIP domain (human); method: DHFR protein complementation; medium: yeast; relative to: wild-type JUN-FOS pair; direction: higher = stronger binding
Notes: single substitutions, most at no-binding floor
Starting sequence: JUN, bZIP domain (human); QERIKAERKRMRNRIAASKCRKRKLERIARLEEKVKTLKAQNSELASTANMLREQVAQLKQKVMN; partner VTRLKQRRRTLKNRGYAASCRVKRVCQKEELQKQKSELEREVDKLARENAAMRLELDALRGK
For `R30Q`, the binding fitness was -1.28 natural log.
`S43M` gave a binding fitness of -1.48 natural log.
With `E33A` the binding fitness was -1.35 natural log.
The binding fitness of `Q41H` is reported as -1.41 natural log.
`L45A` gave a binding fitness of -1.55 natural log.
`L45T` gave a binding fitness of -1.5 natural log.
With `A46M` the binding fitness was -1.44 natural log.
`K34V` gave a binding fitness of -1.41 natural log.

Series 3 — target: CCNA1, cyclin fold, Cln2 fusion (human); method: yeast growth competition, sequencing; medium: yeast; notes: strong parent motif; relative to: not given; direction: higher = stronger binding; starting sequence: viral docking peptide; YKVKRRLVFGADD
`R5A` — result for “normalised enrichment score”: 0.336.
`A11Q` — result for “normalised enrichment score”: 0.86.
For `A11C`, “normalised enrichment score” read 1.17.

Series 4 — method: DHFR PCA, dose-response; medium: yeast; notes: Hill fit, mean, not affinity; together with: (+)-ABA, dose series; direction: lower = more sensitive
Target: ABI1, truncated, D143A, DHFR fusion (Arabidopsis thaliana, UniProt P49597)
Starting sequence: PYL1, truncated, DHFR fusion (Arabidopsis thaliana, UniProt Q8VZS8); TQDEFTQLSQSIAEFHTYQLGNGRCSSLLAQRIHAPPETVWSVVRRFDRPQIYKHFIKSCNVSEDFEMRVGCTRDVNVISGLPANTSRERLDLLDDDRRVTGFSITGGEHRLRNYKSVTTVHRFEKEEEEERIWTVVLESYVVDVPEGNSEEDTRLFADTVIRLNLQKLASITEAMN
`F124Q` has an ABA EC50 of 7.62 µM.
`S42C` has an ABA EC50 of 10.2 µM.
`S42V` has an ABA EC50 of 57.8 µM.
`C60T` gave an ABA EC50 of 4.74 µM.
With `Q167N` the ABA EC50 was 1.83 µM.
`T106M` gave an ABA EC50 of 7.68 µM.
With `R88E` the ABA EC50 was 1.96 µM.
`A13I` has an ABA EC50 of 5.01 µM.
